Measurements collected from several papers.
Parts stem from different laboratories: compare values within a part only.
UniProt P07550, sequence (whole entry, looked up): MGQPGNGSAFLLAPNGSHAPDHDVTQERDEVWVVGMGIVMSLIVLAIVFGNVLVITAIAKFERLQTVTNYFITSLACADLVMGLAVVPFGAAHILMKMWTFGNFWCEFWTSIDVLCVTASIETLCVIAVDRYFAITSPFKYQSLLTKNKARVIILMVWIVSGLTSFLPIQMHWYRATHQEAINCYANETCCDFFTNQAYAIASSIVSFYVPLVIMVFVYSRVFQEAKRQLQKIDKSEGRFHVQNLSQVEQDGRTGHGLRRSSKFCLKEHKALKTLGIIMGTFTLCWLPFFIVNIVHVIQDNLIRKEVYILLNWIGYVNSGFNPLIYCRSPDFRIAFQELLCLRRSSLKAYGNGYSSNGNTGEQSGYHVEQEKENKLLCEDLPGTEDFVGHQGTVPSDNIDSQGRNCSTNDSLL
UniProt P78368, sequence (whole entry, looked up): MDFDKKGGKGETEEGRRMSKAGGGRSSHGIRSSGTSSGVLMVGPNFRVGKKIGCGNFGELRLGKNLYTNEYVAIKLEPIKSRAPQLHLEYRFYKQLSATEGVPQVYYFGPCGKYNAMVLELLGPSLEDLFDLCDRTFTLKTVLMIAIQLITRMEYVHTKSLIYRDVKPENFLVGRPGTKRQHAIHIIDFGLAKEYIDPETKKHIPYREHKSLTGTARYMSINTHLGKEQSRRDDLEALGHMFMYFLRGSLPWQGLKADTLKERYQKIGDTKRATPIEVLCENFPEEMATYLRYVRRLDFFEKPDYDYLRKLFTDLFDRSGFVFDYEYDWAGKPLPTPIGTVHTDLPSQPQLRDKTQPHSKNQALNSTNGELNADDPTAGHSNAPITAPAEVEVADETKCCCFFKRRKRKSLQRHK
UniProt Q9Y2H1, sequence (whole entry, looked up): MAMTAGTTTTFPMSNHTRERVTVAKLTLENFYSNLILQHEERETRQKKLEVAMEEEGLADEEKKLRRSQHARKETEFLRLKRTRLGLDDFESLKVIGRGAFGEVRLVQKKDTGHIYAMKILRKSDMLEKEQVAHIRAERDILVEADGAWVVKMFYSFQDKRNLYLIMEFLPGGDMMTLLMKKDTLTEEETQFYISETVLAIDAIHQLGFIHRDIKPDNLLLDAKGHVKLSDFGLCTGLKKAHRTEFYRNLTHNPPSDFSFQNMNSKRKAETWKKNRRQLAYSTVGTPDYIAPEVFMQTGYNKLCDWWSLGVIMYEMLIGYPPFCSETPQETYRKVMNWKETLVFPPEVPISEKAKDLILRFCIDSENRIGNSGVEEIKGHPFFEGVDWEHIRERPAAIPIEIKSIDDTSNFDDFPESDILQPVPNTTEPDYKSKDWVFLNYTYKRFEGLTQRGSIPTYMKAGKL
UniProt P36507, sequence (whole entry, looked up): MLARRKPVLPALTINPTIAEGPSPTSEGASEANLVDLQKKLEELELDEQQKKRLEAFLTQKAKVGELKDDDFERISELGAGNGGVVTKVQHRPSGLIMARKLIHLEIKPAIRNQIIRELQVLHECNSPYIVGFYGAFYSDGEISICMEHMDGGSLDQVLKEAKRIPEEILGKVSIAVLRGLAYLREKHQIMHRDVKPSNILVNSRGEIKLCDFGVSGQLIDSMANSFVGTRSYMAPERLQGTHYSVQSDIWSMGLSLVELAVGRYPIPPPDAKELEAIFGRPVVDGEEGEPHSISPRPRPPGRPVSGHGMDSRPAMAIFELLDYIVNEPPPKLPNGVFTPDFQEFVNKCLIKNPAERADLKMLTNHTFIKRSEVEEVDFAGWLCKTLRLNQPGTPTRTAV
UniProt O95977, sequence (whole entry, looked up): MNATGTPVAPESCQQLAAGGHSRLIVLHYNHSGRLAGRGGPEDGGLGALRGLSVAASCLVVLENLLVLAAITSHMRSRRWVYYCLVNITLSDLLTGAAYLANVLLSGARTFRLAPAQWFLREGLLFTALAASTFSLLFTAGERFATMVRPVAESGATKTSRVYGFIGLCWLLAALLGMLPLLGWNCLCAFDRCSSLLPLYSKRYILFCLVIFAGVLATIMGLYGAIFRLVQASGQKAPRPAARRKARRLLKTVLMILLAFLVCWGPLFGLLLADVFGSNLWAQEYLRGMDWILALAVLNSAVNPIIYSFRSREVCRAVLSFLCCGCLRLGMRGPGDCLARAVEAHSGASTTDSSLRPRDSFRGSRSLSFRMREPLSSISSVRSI
UniProt Q6PHR2, sequence (whole entry, looked up): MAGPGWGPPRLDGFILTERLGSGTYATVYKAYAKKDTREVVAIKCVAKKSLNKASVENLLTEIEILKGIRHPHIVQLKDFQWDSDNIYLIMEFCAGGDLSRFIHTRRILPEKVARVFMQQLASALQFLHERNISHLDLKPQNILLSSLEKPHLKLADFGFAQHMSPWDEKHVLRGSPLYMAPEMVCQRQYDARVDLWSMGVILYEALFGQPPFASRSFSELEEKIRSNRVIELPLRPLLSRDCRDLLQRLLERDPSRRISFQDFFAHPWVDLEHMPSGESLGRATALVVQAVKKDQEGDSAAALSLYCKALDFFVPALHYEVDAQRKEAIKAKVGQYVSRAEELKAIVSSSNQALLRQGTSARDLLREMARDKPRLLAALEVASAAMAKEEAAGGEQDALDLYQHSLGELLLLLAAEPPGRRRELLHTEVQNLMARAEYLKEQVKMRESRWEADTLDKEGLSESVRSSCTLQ
UniProt P29323, sequence (whole entry, looked up): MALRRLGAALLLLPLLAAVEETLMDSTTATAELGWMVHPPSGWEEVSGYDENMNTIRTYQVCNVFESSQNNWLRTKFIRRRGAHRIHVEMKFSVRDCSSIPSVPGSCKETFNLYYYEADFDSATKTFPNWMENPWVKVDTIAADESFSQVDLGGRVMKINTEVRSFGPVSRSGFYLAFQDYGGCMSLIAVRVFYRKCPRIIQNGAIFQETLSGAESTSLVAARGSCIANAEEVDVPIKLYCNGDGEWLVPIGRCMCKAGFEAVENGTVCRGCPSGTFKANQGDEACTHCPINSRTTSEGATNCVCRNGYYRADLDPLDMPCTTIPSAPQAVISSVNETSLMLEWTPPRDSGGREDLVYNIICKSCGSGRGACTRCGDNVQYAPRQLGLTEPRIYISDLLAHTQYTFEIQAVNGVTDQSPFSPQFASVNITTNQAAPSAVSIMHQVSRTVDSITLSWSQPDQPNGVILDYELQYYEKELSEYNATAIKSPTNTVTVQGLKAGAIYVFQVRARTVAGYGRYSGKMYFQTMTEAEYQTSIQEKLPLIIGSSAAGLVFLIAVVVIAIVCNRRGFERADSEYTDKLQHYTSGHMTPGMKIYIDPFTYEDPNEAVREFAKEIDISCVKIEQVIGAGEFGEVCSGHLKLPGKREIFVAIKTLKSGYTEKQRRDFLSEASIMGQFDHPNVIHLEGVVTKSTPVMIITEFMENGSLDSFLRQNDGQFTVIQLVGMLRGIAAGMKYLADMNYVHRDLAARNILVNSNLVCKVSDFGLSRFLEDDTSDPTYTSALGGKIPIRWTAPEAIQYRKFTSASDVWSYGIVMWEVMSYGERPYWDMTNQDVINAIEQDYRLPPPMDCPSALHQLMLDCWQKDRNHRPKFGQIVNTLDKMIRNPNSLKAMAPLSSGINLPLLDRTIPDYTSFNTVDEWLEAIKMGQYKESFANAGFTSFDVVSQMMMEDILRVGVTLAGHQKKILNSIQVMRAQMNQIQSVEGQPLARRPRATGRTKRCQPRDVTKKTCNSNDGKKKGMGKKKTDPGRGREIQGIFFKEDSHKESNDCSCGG
UniProt Q16816, sequence (whole entry, looked up): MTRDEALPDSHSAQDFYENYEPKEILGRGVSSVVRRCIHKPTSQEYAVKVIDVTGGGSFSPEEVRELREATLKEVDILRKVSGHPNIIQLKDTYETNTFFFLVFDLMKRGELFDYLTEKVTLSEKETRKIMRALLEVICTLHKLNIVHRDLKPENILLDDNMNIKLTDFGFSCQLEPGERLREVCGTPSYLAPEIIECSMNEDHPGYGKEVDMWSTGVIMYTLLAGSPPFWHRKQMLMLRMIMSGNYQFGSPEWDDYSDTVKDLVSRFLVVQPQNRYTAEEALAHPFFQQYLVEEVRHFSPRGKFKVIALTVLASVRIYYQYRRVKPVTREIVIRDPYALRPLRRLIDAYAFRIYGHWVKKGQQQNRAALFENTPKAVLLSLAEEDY
UniProt Q8WTQ7, sequence (whole entry, looked up): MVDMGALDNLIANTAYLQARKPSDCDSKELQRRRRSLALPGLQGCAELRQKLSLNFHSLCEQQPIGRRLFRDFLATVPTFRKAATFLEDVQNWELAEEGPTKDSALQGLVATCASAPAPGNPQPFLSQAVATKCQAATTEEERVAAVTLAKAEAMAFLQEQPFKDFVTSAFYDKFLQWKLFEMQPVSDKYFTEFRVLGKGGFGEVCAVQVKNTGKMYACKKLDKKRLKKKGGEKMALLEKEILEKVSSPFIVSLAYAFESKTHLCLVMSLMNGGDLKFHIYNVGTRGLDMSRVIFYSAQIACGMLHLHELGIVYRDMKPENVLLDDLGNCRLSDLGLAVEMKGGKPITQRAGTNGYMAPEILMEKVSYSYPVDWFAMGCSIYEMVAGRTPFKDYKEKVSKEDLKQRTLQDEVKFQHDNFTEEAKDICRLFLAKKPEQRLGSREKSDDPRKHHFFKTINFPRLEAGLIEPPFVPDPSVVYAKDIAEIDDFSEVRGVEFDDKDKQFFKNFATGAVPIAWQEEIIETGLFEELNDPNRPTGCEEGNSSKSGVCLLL
UniProt P27361, sequence (whole entry, looked up): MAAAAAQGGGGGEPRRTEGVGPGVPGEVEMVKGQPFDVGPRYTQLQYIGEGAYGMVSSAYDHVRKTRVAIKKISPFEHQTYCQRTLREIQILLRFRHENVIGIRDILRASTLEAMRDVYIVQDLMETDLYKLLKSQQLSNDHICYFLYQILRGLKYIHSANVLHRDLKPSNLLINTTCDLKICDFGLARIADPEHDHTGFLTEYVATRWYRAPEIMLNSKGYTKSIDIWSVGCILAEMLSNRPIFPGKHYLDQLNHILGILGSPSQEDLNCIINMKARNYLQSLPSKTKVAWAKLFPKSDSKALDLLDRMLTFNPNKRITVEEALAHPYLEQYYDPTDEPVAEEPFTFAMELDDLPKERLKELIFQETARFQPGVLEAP

Block 1
SMILES: Cc1cn(-c2cc(NC(=O)c3ccc(C)c(Nc4nccc(-c5cccnc5)n4)c3)cc(C(F)(F)F)c2)cn1
Observed: enzyme activity
Action: inhibitor
Tested at: 0.5 µM
Reference: control
target	remaining activity [%]
ULK3 (Homo sapiens, UniProt Q6PHR2)	108
TAOK2 (Homo sapiens, UniProt Q9UL54)	85.2
MAPK3 (Homo sapiens, UniProt P27361)	105
RPS6KA2 (Homo sapiens, UniProt Q15349)	97.1
FGFR3 (Homo sapiens, UniProt P22607)	103
GRK7 (Homo sapiens, UniProt Q8WTQ7)	99.8
ULK2 (Homo sapiens, UniProt Q8IYT8)	104
NEK6 (Homo sapiens, UniProt Q9HC98)	93.6
ARAF (Homo sapiens, UniProt P10398)	77.3
CSNK1G2 (Homo sapiens, UniProt P78368)	97.3
WEE1 (Homo sapiens, UniProt P30291)	99
GSK3B (Homo sapiens, UniProt P49841)	93.7
FGFR1 (Homo sapiens, UniProt P11362)	99.6
MAP2K2 (Homo sapiens, UniProt P36507)	93.2

Block 2
SMILES: N=C(N)NC(=O)c1cnn(-c2cccc3ncccc23)c1C1CC1
Observed: β-arrestin recruitment
Action: agonist
Technique: PRESTO-Tango
Tested at: 10 µM
Reference: untreated
target	fold over basal
S1PR3 (Homo sapiens, UniProt Q99500)	0.74
TBXA2R (Homo sapiens, UniProt P21731)	1.08 fold
GLP1R (Homo sapiens, UniProt P43220)	0.65 fold
CX3CR1 (Homo sapiens, UniProt P49238)	1.01
ADRB2 (Homo sapiens, UniProt P07550)	0.9
PTGER2 (Homo sapiens, UniProt P43116)	1.13
S1PR4 (Homo sapiens, UniProt O95977)	1.12
DRD4 (Homo sapiens, UniProt P21917)	1.28
GPR37L1 (Homo sapiens, UniProt O60883)	1.04
Probable G-protein coupled receptor 153 (GPR153, Homo sapiens, UniProt Q6NV75)	1.16
LPAR4 (Homo sapiens, UniProt Q99677)	1.16
S1PR2 (Homo sapiens, UniProt O95136)	1.08

Block 3
Medium: hydrocarbon/water
pH: 7.4
SMILES	logD
CC(C)C[C@@H]1NC(=O)CN(CCCOC(C)C)C(=O)[C@H](C)NC(=O)[C@H](CC(C)C)N(C)C(=O)[C@H]2CCCN2C(=O)[C@H](Cc2ccccc2)NC(=O)CN(CC2CCOCC2)C(=O)[C@H](C)NC(=O)[C@H](CC(C)C)N(C)C(=O)[C@H]2CCCN2C1=O	1.26
CCC[C@@H]1NC(=O)[C@H](C)N(C)C(=O)[C@H](CC(C)C)NC(=O)Cn2cc(nn2)CN(C)C(=O)[C@H](CC(C)C)NC(=O)[C@H](C)N(C)C(=O)[C@H](CC2CCCCC2)NC(=O)CN(CCC)C(=O)[C@H]2CCCN2C1=O	0.706
CC(C)C[C@@H]1NC(=O)[C@H](Cc2ccccc2)N(C)C(=O)[C@H]2CCCN2C(=O)[C@H](CC(C)C)NC(=O)[C@H](C)N(C)C(=O)[C@@H](C)N(C)C1=O	1.61
CCC[C@@H]1NC(=O)CN(CCC)C(=O)[C@H](CC(C)C)NC(=O)Cn2cc(nn2)CN(C)C(=O)[C@H](CC(C)C)NC(=O)[C@H](C)N(C)C(=O)[C@H](CC2CCCCC2)NC(=O)[C@H](C)N(C)C(=O)[C@H]2CCCN2C1=O	0.208
CCC[C@@H]1NC(=O)[C@H](C)N(C)C(=O)[C@H](CC(C)C)NC(=O)Cn2cc(nn2)CN(C)C(=O)[C@H](CC(C)C)NC(=O)[C@H](C)N(C)C(=O)[C@H](CC(C)C)NC(=O)[C@H](CC)N(C)C(=O)[C@H]2CCCN2C1=O	-0.327
CCC[C@@H]1C(=O)N(C)[C@@H](C)C(=O)N[C@@H](CC(C)C)C(=O)N2CCC[C@@H]2C(=O)N(C)[C@@H](C)C(=O)N[C@@H](CC(C)C)C(=O)N1C	1.18
CCCN1CC(=O)N[C@@H](CC2CCCCC2)C(=O)N(C)[C@@H](C)C(=O)N[C@@H](CC(C)C)C(=O)N(C)Cc2cn(nn2)CC(=O)N[C@@H](C2CCCCC2)C(=O)N(C)[C@@H](C)C(=O)N[C@@H](CC2CCCCC2)C(=O)N2CCC[C@@H]2C1=O	2.77
CCC[C@@H]1NC(=O)[C@H](C)N(C)C(=O)[C@H](CC(C)C)NC(=O)Cn2cc(nn2)CN(C)C(=O)[C@H](CC(C)C)NC(=O)[C@H](C)N(C)C(=O)[C@H](CC(C)C)NC(=O)CN(CC)C(=O)[C@H]2CCCN2C1=O	-0.997
CCN1CC(=O)N[C@@H](CC(C)C)C(=O)N2CCC[C@@H]2C(=O)N(C)[C@@H](CC(C)C)C(=O)N[C@@H](C)C(=O)N(CC2CCCCC2)CC(=O)N[C@@H](C)C(=O)N2CCC[C@@H]2C(=O)N(C)[C@@H](CC(C)C)C(=O)N[C@@H](C)C1=O	1.42

Block 4
SMILES: CCC(=O)N[C@H]1CC[C@@H](C(=O)N(C)c2ccc(-c3nc4ccccc4o3)cc2)C1
Observed: cell-free assay
Technique: competition with immobilised ligand
Tested at: 1 µM
target	remaining binding
Ribosomal protein S6 kinase alpha-6, C-terminal kinase domain (RPS6KA6, Homo sapiens, UniProt Q9UK32)	92%
PHKG1 (Homo sapiens, UniProt Q16816)	100%
OXSR1 (Homo sapiens, UniProt O95747)	83%
MAP3K12 (Homo sapiens, UniProt Q12852)	100%
GRK4 (Homo sapiens, UniProt P32298)	100%
STK38L (Homo sapiens, UniProt Q9Y2H1)	79%
FLT3 (Homo sapiens, UniProt P36888, D835V/ITD)	100%
EPHB2 (Homo sapiens, UniProt P29323)	100%
PIP4K2C (Homo sapiens, UniProt Q8TBX8)	100%

Some of these lines once more (block 2):
target	fold over basal
S1PR2 (Homo sapiens, UniProt O95136)	1.08
PTGER2 (Homo sapiens, UniProt P43116)	1.13
CX3CR1 (Homo sapiens, UniProt P49238)	1.01
LPAR4 (Homo sapiens, UniProt Q99677)	1.16
S1PR3 (Homo sapiens, UniProt Q99500)	0.74
